Assay results gathered from unrelated publications.
Every numbered part comes from another study and shows a few of its results, in no order. Substitutions count along the parent as printed.

Set 1
Target: tungstate, free oxyanion
Method: microfluidic competitive inhibition
Matrix: in vitro, cell-free expressed
Tested at: not given
Notes: derived from inhibition constants, unchanged parent 2230 nM
Direction: lower = stronger binding
Starting sequence: PafA, mature enzyme, eGFP fusion (Elizabethkingia meningoseptica, UniProt Q9KJX5); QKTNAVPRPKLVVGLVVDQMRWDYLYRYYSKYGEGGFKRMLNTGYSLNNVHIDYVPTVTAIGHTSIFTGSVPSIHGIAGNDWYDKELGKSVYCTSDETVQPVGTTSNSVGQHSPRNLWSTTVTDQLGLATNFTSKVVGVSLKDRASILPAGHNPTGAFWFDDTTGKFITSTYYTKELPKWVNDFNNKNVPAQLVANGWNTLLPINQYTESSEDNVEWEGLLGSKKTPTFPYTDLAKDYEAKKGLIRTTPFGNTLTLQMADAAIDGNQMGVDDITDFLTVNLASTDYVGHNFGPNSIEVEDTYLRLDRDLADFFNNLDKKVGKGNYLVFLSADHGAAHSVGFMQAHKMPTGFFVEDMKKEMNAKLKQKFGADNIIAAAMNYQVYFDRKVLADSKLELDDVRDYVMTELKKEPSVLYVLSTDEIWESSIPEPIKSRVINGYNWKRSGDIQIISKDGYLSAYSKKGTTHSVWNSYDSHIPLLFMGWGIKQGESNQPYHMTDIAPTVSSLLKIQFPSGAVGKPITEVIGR
Under “oxyanion analog dissociation constant”, `L303G` is recorded as 2.61 µM.
For `V136G`, “oxyanion analog dissociation constant” read 2.31 µM.
`G265V` — result for “oxyanion analog dissociation constant”: 2.86 µM.
`E297G`: “oxyanion analog dissociation constant” 0.754 µM.
For `T169G`, “oxyanion analog dissociation constant” read 1.15 µM.
Under “oxyanion analog dissociation constant”, `T248V` is recorded as 2.23 µM.
Under “oxyanion analog dissociation constant”, `S412G` is recorded as 2.92 µM.
Under “oxyanion analog dissociation constant”, `K175V` is recorded as 2.09 µM.

Set 2
Target: CCNE1, cyclin fold, Cln2 fusion (human)
Method: yeast growth competition, sequencing
Matrix: yeast
Notes: strong parent motif
Baseline: not given
Direction: higher = stronger binding
Starting sequence: viral docking peptide; KGVKRKLFAEDSS; partner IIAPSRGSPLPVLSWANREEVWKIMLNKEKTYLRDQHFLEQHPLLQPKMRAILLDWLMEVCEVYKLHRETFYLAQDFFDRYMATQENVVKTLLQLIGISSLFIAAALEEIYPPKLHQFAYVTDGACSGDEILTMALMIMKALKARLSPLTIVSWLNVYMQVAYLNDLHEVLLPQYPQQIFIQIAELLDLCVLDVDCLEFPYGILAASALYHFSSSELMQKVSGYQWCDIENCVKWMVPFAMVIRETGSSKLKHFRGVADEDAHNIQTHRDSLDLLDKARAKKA
For `KGVKRTLFAEDSS [K6T]`, “normalised enrichment score” read 6.41.
`KGVNRKLFAEDSS [K4N]`: “normalised enrichment score” 6.16.
Under “normalised enrichment score”, `KGVKRKLFAENSS [D11N]` is recorded as 7.26.
Under “normalised enrichment score”, `KDVKRKLFAEDSS [G2D]` is recorded as 7.45.
For `KNVKRKLFAEDSS [G2N]`, “normalised enrichment score” read 7.46.
Under “normalised enrichment score”, `KGVWRKLFAEDSS [K4W]` is recorded as 1.49.
Under “normalised enrichment score”, `KGVKRKLFAVDSS [E10V]` is recorded as 6.97.
`KGVKRKLFAEDWS [S12W]` — result for “normalised enrichment score”: 7.24.

Set 3
Target: UDP-N-acetylglucosamine--peptide N-acetylglucosaminyltransferase 110 kDa subunit (OGT, Homo sapiens, UniProt O15294)
Sequence of UniProt O15294 (whole entry, looked up): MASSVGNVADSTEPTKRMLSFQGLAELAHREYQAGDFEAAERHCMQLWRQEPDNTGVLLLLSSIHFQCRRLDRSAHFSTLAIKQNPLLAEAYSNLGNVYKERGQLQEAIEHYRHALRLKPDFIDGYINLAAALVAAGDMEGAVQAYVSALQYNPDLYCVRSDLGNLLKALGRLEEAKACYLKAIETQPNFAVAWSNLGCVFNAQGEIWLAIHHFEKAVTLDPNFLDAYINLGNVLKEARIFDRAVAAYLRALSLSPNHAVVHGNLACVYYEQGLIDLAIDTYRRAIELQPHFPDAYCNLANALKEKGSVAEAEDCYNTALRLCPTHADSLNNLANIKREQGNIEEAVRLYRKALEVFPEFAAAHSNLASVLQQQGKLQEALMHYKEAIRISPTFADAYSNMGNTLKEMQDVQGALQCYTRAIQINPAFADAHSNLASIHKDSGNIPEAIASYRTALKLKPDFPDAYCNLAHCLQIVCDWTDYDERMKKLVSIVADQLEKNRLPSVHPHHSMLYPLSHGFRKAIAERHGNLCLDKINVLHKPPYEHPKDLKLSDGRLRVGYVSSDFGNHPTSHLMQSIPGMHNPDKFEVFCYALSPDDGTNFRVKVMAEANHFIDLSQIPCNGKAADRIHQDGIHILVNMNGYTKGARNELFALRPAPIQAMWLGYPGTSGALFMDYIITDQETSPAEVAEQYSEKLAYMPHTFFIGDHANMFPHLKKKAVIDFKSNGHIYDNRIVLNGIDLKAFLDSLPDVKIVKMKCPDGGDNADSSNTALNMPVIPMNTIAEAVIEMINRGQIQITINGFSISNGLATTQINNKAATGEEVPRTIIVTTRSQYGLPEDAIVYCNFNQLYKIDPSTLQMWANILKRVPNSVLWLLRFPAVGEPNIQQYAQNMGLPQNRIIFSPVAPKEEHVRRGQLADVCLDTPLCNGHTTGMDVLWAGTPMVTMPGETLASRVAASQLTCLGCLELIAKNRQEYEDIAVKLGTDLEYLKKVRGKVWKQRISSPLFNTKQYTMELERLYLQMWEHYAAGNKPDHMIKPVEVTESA
Read-out: binding
Method: phage display NGS
Molecule type: peptide
Tested at: concentration not given
Baseline: input library
Under “enrichment fold change”, `HTYYQHQHGQGDRYI` is recorded as 3.18.
`HVEHVMHRSQAHDTH` — result for “enrichment fold change”: 4.25.
For `HFISPHPHRVENRMH`, “enrichment fold change” read 3.25.
`HQHQHIDHHYLFEG` — result for “enrichment fold change”: 5.35.
`HWDHWQHTINHNVDG` — result for “enrichment fold change”: 7.48.
For `SWMPFYQIEFSQGSS`, “enrichment fold change” read 14.8.
`ADFQLTYKPLYQIVA`: “enrichment fold change” 3.3.
`ESHQYSFKPMYQIVI` — result for “enrichment fold change”: 3.3.

Single results of other studies
For C=CC1=C(C)c2cc3[nH]c(cc4nc(cc5[nH]c(cc1n2)c(C)c5C=C)C(C)=C4CCC(=O)O)c(CCC(=O)O)c3C.[Fe+3], the inhibition was 6.3% (chymotrypsin; enzyme activity, inhibitor; 10 µM, with DTT).

Excerpt of the above (set 2):
Under “normalised enrichment score”, `KGVKRKLFAVDSS [E10V]` is recorded as 6.97.
Under “normalised enrichment score”, `KGVKRKLFAENSS [D11N]` is recorded as 7.26.
`KGVNRKLFAEDSS [K4N]`: “normalised enrichment score” 6.16.
